Measurements of several laboratories.
Every numbered part comes from another study and shows a few of its results, in no order.
Chain of UniProt P36897 (whole entry, looked up): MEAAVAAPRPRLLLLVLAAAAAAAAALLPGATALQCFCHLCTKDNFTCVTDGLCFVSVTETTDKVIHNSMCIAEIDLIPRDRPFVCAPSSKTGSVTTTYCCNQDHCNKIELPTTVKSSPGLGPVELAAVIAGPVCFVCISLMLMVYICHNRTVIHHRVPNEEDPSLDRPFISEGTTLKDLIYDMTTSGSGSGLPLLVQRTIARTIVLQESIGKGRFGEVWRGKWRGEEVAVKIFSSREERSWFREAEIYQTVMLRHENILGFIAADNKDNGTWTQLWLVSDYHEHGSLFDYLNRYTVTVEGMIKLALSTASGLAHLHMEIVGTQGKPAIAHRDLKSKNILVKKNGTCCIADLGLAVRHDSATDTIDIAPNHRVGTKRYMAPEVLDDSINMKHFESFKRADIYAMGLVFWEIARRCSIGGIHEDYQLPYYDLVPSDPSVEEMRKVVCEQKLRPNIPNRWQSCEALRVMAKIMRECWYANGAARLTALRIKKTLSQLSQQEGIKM
Chain of UniProt P51955 (whole entry, looked up): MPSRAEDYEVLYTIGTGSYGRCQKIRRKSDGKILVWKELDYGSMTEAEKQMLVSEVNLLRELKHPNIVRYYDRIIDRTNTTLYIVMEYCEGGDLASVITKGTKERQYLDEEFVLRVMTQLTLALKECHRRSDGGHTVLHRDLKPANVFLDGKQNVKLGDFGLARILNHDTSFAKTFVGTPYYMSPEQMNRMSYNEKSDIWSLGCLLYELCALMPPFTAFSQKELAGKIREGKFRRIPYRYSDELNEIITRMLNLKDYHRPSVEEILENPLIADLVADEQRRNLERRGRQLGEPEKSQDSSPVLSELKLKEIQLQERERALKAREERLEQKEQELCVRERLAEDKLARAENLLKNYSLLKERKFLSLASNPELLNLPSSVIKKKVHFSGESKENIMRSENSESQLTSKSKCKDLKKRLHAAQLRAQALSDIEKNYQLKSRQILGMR
Chain of UniProt P11802 (whole entry, looked up): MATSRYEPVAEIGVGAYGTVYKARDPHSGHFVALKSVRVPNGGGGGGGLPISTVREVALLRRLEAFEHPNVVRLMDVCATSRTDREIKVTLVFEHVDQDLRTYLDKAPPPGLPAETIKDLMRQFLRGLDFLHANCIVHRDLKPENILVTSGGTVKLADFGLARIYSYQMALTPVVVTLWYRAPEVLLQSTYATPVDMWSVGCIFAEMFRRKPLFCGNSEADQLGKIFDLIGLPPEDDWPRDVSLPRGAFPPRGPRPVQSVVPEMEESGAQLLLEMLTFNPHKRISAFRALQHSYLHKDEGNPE
Chain of UniProt P53355 (whole entry, looked up): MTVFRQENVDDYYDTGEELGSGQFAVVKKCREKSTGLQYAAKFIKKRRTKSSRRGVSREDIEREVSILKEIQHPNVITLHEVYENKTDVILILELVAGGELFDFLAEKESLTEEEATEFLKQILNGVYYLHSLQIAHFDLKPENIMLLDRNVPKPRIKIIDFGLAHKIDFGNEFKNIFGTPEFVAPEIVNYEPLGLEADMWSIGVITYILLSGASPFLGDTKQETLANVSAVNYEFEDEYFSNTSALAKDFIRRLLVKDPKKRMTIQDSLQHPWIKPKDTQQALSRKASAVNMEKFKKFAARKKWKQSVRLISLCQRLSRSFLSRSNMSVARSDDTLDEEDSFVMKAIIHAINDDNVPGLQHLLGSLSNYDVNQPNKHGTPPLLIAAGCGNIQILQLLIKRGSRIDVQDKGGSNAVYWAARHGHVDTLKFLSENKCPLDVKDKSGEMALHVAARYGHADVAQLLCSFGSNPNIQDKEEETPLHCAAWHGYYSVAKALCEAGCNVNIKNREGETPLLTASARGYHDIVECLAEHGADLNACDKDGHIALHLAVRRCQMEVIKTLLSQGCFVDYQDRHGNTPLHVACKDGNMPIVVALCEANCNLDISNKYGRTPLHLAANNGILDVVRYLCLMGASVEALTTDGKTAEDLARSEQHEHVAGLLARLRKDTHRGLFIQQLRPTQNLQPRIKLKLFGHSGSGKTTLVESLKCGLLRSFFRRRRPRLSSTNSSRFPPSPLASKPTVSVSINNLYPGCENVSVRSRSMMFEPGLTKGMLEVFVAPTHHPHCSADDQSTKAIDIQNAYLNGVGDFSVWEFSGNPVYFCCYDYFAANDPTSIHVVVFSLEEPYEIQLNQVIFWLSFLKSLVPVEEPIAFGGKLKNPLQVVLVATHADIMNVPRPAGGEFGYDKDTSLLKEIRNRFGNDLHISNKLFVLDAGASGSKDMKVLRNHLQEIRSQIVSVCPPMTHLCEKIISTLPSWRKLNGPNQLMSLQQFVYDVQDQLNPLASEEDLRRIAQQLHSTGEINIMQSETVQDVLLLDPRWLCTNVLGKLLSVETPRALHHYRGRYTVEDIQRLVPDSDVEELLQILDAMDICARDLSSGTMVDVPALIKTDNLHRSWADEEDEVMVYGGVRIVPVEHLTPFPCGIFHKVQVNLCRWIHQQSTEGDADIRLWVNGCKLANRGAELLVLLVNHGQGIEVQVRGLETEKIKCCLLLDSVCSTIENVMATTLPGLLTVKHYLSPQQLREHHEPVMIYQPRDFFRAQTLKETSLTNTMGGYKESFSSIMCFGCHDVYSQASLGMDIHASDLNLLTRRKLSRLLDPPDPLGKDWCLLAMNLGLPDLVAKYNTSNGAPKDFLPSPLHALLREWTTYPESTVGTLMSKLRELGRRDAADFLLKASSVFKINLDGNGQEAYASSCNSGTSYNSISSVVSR
Chain of UniProt Q13131 (whole entry, looked up): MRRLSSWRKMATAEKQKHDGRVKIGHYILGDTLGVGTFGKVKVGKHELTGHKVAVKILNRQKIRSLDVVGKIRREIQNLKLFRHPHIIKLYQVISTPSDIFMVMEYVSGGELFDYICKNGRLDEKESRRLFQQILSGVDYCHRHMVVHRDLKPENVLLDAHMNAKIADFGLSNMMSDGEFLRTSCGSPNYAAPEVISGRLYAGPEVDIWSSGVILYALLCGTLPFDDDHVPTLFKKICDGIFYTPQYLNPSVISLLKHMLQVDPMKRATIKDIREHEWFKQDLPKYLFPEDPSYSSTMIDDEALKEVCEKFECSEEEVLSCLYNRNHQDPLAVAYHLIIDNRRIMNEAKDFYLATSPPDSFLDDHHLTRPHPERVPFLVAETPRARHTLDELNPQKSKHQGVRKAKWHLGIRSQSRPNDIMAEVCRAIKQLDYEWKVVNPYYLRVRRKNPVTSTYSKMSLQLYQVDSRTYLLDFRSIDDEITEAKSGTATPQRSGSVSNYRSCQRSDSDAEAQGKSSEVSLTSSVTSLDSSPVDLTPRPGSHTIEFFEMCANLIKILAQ
Chain of UniProt O15146 (whole entry, looked up): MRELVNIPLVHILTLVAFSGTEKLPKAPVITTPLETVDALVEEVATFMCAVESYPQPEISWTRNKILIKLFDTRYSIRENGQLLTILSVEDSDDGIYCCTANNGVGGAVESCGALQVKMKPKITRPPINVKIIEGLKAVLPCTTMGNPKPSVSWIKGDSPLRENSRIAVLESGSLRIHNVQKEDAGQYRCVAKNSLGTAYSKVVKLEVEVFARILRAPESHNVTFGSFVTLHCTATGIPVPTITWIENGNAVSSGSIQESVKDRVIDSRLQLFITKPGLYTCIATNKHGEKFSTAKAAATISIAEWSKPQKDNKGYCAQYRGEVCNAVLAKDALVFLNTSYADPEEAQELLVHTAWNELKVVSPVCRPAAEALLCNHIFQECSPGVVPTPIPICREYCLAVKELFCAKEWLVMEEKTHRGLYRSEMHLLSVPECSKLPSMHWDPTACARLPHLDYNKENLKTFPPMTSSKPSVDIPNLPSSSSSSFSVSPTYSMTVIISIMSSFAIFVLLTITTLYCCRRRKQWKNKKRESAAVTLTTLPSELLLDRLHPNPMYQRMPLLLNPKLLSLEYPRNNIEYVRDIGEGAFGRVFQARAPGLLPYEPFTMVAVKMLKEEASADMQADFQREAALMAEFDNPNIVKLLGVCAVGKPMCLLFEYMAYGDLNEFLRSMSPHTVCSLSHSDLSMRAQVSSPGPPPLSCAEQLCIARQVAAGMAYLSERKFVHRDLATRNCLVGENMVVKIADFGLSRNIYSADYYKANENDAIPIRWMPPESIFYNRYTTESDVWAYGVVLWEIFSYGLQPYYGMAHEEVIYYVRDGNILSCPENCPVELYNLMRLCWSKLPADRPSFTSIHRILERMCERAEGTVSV
Chain of UniProt Q99759 (whole entry, looked up): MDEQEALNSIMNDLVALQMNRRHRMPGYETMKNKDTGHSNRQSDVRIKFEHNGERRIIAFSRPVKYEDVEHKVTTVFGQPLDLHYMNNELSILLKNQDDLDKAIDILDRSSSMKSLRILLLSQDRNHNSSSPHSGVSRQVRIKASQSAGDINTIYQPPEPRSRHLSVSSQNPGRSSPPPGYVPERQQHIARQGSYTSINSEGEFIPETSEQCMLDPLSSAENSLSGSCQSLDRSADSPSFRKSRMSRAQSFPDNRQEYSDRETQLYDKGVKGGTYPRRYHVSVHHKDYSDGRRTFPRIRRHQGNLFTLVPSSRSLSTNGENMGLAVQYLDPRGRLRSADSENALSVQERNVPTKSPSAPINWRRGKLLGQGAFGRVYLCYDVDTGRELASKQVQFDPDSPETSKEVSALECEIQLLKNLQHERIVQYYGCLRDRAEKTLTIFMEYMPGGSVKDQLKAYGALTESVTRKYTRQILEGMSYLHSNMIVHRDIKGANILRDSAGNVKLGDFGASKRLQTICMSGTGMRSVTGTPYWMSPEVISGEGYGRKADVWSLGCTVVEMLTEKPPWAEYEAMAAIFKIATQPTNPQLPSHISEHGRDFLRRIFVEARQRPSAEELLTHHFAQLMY
Chain of UniProt Q00535 (whole entry, looked up): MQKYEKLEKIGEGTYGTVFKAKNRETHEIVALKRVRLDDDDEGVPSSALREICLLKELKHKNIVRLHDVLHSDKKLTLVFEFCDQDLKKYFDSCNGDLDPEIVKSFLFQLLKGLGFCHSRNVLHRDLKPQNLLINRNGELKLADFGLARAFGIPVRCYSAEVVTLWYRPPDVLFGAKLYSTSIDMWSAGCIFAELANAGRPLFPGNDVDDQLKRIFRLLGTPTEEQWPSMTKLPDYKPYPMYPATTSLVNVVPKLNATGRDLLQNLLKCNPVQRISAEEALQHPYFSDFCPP

Set 1
SMILES: CNC(=O)Nc1ccc2c(c1)CC[C@@]21OC(=O)N(CC(=O)N(Cc2ccc(F)cc2)[C@@H](C)C(F)(F)F)C1=O
Technique: competition with immobilised ligand
Concentration: 1 µM
| target | observed | remaining binding [%] |
| --- | --- | --- |
| PRKCQ (Homo sapiens, UniProt Q04759) | cell-free assay | 71 |
| CDKL5 (Homo sapiens, UniProt O76039) | binding | 69 |
| EPHA4 (Homo sapiens, UniProt P54764) | cell-free assay | 89 |
| PRKAA1 (Homo sapiens, UniProt Q13131) | cell-free assay | 100 |
| MUSK (Homo sapiens, UniProt O15146) | cell-free assay | 91 |
| FGFR3 (Homo sapiens, UniProt P22607) | cell-free assay | 82 |
| COQ8A (Homo sapiens, UniProt Q8NI60) | cell-free assay | 74 |
| MAP3K12 (Homo sapiens, UniProt Q12852) | cell-free assay | 100 |
| EIF2AK1 (Homo sapiens, UniProt Q9BQI3) | cell-free assay | 80 |
| MYLK3 (Homo sapiens, UniProt Q32MK0) | cell-free assay | 90 |
| TGFBR1 (Homo sapiens, UniProt P36897) | cell-free assay | 98 |
| MAPK8 (Homo sapiens, UniProt P45983) | cell-free assay | 65 |
| NEK2 (Homo sapiens, UniProt P51955) | cell-free assay | 100 |
| ULK2 (Homo sapiens, UniProt Q8IYT8) | cell-free assay | 82 |
| ZAP70 (Homo sapiens, UniProt P43403) | cell-free assay | 73 |
| MAPK1 (Homo sapiens, UniProt P28482) | cell-free assay | 91 |
| ULK1 (Homo sapiens, UniProt O75385) | cell-free assay | 70 |
| eIF-2-alpha kinase GCN2, C-terminal kinase domain (EIF2AK4, Homo sapiens, UniProt Q9P2K8, S808G) | cell-free assay | 92 |
| PDGFRA (Homo sapiens, UniProt P16234) | cell-free assay | 93 |
| PIK3CA (Homo sapiens, UniProt P42336, M1043I) | cell-free assay | 100 |
| STK32B (Homo sapiens, UniProt Q9NY57) | cell-free assay | 90 |
| CAMK1G (Homo sapiens, UniProt Q96NX5) | cell-free assay | 100 |

Set 2
Compound: CN(C(=O)c1ccn2ncc(-c3ccc(C(N)=O)cc3)c2c1)c1ccc(C#N)cn1
Target: Phosphatidylinositol 4-kinase (Cryptosporidium parvum, UniProt Q5CVD3)
Observed: enzyme activity
Action: inhibitor
Technique: ADP-Glo
| concentration | inhibition |
| --- | --- |
| 0.000247 µM | 94.6% |
| 0.006667 µM | 100% |
| 8.23e-05 µM | 85% |
| 0.02 µM | 100% |

Set 3
SMILES: Cc1ccc(NC(=O)c2ccc(CN3CCN(C)CC3)cc2)cc1Nc1nccc(-c2cccnc2)n1
Observed: enzyme activity
Action: inhibitor
Concentration: 0.5 µM
Baseline: control
| target | remaining activity [%] |
| --- | --- |
| MAPK9 (Homo sapiens, UniProt P45984) | 95.2 |
| STK39 (Homo sapiens, UniProt Q9UEW8) | 93.2 |
| STK11 (Homo sapiens, UniProt Q15831) | 104 |
| CHEK2 (Homo sapiens, UniProt O96017) | 99.1 |
| OXSR1 (Homo sapiens, UniProt O95747) | 101 |
| MAP3K3 (Homo sapiens, UniProt Q99759) | 106 |
| CAMKK2 (Homo sapiens, UniProt Q96RR4) | 97.5 |
| STK10 (Homo sapiens, UniProt O94804) | 103 |
| PRKCA (Homo sapiens, UniProt P17252) | 98.2 |
| TGFBR2 (Homo sapiens, UniProt P37173) | 97.7 |
| CAMK2D (Homo sapiens, UniProt Q13557) | 97.4 |
| TGFBR1 (Homo sapiens, UniProt P36897) | 99.7 |
| DAPK1 (Homo sapiens, UniProt P53355) | 104 |
| Cyclin-dependent kinase 5, with p25 (CDK5, Homo sapiens, UniProt Q00535) | 98.1 |
| Tyrosine-protein kinase Lyn, isoform B (LYN, Homo sapiens, UniProt P07948) | 71.2 |
| Protein kinase C beta type, isoform beta-I (PRKCB, Homo sapiens, UniProt P05771) | 92.7 |
| NEK2 (Homo sapiens, UniProt P51955) | 98.7 |
| Cyclin-dependent kinase 4, with cyclin D1 (CDK4, Homo sapiens, UniProt P11802) | 97.5 |

Set 4
Cell line: A-375
Concentration: 100 µM
Time: 18 h
| Structure (SMILES) | viability [%] |
| --- | --- |
| CO/N=C1\C[C@]2(C[C@@H]3C[C@@H](C/C=C(\C)C[C@@H](C)/C=C/C=C4\CO[C@@H]5[C@H](O)C(C)=C[C@@H](C(=O)O3)[C@]45O)O2)O[C@H](/C(C)=C/C(C)C)[C@H]1C | 11.3 |
| Nc1nc(N)c2nc(-c3ccccc3)c(N)nc2n1 | 42.9 |
| COc1cc2nc(N3CCN(C(=O)C4COc5ccccc5O4)CC3)nc(N)c2cc1OC (stereo not shown) | 8.37 |
| CCN(CC)CCNC(C(=O)OCCC(C)C)c1ccccc1 (stereo not shown) | 87.5 |
| Nc1nc(Cl)nc2c1ncn2[C@@H]1O[C@H](CO)[C@@H](O)[C@@H]1F | 65.4 |
| CC(C)=CCC/C(C)=C/C=C/C(C)=C/C=C/C(C)=C/C=C/C=C(C)/C=C/C=C(C)/C=C/C=C(\C)CCC=C(C)C | 100 |
| CC1=CC(=O)c2ccccc2C1=O | 15.7 |
| C[C@]12CC[C@H](O)CC1=CC[C@@H]1[C@@H]2CC[C@]2(C)C(c3cccnc3)=CC[C@@H]12 | 88.9 |
| N#Cc1cc(-c2n[nH]c(-c3ccncc3)n2)ccn1 | 107 |
| CCn1c(=O)c2c(nc(/C=C/c3ccc(OC)c(OC)c3)n2C)n(CC)c1=O | 102 |
| CCn1cc(C(=O)O)c(=O)c2cnc(N3CCNCC3)nc21 | 89.6 |
